Assay results pooled from the literature.
Every numbered part comes from another study and shows a few of its results, in no order. Substitutions count along the parent as printed.

Block 1 — target: CCND3, cyclin fold, Cln2 fusion (human); method: yeast growth competition, sequencing; sample: yeast; setting: weak parent motif; reference: not given; direction: higher = stronger binding; measurement: normalised enrichment score
Starting sequence: PKN2 docking peptide (human); VSAVRKLDFSDTM
VSAVNKLDFSDTM [R5N]: -0.08
VSAVRKLDFSSTM [D11S]: 0.71
VSAVRKLDISDTM [F9I]: 0.145
VSAVRCLDFSDTM [K6C]: 0.594

Block 2 — method: protein binding microarray; molecule type: double-stranded DNA, one strand shown; sample: in vitro; tested at: not given; reference: not given; direction: higher = stronger binding; measurement: E-score
Target: Histone acetyltransferase KAT6A, winged helix 2, GST fusion (KAT6A, Homo sapiens, UniProt Q92794, residues 85-181)
Setting: 8-mer, flanks averaged, mean of 2 arrays, mostly near background
Residues (chain): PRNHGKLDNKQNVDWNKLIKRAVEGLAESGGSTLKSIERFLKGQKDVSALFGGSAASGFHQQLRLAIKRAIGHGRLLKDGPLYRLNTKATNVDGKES
GTTCTGGA: 0.0411
AATCACTA: -0.135
AGACAGCA: 0.00455
CGCTACCA: -0.101
TCAACCAA: 0.0567
GGCCGACA: -0.0356
CGGGAGAG: 0.0581
CACCGAGA: -0.0684
AGTGTCCA: 0.099

Block 3 — method: competition protein-binding microarray; molecule type: double-stranded DNA, one strand shown; sample: in vitro; tested at: 2 µM; with: Pho4 competitor, 0.05 µM; direction: higher = stronger binding; measurement: fluorescence intensity; shared flanks, not repeated: … GTCTTGATTCGCTTGACGCTGCTG
Target: Centromere-binding protein 1, full length, His-tagged (CBF1, Saccharomyces cerevisiae, UniProt P17106, residues 1-351)
Chain of UniProt P17106 (whole entry, looked up): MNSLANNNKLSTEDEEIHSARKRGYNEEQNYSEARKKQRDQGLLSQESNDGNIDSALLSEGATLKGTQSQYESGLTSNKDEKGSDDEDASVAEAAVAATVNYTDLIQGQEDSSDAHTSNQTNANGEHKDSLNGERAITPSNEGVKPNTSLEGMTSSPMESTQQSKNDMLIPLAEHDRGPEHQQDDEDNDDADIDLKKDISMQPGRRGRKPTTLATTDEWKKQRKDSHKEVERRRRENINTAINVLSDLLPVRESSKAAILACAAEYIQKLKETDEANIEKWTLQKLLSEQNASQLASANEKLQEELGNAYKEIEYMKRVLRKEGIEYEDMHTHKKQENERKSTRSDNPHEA
Setting: whole 60-bp probe, lowest competitor level
CTTCTGTAAATTTGCTATGTGGGTGGACGCGCCCCG: 80.4 a.u.
TTTCCAAAACTCCAACACGTGATGGATAAGATAGTC: 4290 a.u.
CTAACGAAGGTTTGTTAAGTGGGTGACAAGCCAAGT: 65 a.u.
GTTTGATAATGTCAACACGTCATCATAGATGGTTGT: 87.7 a.u.
AAAGCGGTAATTTGTCACAGGACTTCACATATCTAT: 137 a.u.
CGGGGTTAAGTTTGAAATGTGGGTGGCTTGCAGCAG: 80.2 a.u.

Single results of other studies
PhoQ, residues 284 288 289 292 302 303 GASLAW
fold induction (PhoP, residues 12 14 15 18 19 NYFTV (Escherichia coli, UniProt P23836); Sort-seq, measured: YFP reporter; E. coli; PhoQ-PhoP variant library, with: 10 µM Mg2+; reference: high Mg2+ state, higher = stronger signaling): 3.38

For quick reference, copied from above (block 2):
CGCTACCA: -0.101
TCAACCAA: 0.0567
GGCCGACA: -0.0356
